Measurements pooled from the literature.
Compare with care: the assays were run in different laboratories. Numbers after ± are the reported error.
STING1 H232R: Stimulator of interferon genes protein (STING1, Homo sapiens, UniProt Q86WV6, H232R)
Sequence of UniProt Q86WV6 (whole entry, unmodified, looked up): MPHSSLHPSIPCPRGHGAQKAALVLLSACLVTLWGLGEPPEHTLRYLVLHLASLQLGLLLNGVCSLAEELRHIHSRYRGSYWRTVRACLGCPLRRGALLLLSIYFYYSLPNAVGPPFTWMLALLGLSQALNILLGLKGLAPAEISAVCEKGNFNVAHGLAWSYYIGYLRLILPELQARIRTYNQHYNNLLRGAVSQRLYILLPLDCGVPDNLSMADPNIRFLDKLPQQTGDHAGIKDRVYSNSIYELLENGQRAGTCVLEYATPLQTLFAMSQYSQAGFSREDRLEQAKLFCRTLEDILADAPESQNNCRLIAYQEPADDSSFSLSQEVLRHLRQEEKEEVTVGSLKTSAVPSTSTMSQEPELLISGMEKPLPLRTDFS
OR5K1: OR5K1 (Homo sapiens, UniProt Q8NHB7)
Sequence of UniProt Q8NHB7 (whole entry, looked up): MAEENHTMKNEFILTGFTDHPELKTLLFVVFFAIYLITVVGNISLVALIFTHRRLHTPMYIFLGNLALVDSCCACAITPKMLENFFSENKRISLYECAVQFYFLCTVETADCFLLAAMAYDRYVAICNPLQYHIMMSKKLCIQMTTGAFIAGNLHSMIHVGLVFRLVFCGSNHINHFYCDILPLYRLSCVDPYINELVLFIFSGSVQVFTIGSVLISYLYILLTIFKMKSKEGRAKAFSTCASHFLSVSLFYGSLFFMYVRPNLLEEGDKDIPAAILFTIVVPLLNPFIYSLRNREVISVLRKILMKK
Cnr2: Cannabinoid receptor 2 (Cnr2, Mus musculus, UniProt P47936)
Sequence of UniProt P47936 (whole entry, looked up): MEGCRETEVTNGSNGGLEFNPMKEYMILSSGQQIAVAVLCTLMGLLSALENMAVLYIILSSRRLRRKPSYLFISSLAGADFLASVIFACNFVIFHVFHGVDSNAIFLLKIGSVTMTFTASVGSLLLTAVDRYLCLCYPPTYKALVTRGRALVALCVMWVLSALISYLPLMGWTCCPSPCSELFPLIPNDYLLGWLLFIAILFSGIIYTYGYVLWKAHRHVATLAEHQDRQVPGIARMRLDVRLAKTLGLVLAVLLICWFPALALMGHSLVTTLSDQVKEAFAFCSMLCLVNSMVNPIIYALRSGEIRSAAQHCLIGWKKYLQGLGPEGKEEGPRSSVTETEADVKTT
uncharacterized protein: uncharacterized protein (Aplysia californica, UniProt A0ABM0K1K5)
Sequence of UniProt O75762 (whole entry, unmodified, looked up): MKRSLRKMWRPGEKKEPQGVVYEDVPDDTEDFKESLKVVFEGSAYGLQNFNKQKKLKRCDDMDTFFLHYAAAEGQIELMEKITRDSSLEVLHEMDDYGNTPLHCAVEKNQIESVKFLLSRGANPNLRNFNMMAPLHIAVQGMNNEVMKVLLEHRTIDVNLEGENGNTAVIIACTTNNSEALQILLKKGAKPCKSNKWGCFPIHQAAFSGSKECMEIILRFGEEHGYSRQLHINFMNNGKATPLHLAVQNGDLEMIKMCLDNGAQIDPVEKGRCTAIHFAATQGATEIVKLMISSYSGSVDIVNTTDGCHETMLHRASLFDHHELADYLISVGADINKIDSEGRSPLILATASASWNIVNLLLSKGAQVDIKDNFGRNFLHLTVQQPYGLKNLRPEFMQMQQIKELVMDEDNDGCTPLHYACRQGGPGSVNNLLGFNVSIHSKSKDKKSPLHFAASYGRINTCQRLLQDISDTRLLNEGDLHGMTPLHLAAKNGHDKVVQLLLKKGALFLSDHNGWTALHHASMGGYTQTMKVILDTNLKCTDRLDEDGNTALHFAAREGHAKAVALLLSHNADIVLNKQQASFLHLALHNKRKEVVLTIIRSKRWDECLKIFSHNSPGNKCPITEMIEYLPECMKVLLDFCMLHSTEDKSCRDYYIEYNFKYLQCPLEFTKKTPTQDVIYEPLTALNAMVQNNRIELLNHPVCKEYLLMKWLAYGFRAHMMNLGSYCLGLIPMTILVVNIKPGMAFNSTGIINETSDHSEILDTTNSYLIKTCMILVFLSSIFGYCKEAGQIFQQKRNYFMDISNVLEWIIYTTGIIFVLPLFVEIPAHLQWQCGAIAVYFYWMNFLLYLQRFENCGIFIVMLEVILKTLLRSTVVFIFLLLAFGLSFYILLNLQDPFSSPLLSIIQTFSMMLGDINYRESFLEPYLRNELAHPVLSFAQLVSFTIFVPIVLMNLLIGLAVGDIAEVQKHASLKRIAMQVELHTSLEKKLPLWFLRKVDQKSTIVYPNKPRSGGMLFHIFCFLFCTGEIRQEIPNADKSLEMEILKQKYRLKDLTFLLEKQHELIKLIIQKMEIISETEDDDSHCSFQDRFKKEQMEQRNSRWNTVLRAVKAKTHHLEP
Sequence of UniProt O60896 (whole entry, looked up): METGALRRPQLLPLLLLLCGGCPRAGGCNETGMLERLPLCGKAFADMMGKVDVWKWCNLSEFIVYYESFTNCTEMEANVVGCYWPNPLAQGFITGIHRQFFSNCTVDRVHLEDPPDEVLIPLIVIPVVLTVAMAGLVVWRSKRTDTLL
Sequence of UniProt Q92847 (whole entry, looked up): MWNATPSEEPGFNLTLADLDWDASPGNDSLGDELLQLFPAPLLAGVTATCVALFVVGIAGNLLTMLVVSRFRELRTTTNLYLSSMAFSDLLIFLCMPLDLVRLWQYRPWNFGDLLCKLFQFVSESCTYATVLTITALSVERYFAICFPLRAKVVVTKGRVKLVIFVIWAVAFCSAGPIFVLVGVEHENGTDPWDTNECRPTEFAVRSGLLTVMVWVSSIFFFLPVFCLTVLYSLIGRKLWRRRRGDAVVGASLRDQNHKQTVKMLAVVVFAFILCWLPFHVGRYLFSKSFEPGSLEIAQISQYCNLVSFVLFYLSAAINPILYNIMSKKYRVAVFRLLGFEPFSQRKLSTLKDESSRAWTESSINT
Sequence of UniProt P17858 (whole entry, looked up): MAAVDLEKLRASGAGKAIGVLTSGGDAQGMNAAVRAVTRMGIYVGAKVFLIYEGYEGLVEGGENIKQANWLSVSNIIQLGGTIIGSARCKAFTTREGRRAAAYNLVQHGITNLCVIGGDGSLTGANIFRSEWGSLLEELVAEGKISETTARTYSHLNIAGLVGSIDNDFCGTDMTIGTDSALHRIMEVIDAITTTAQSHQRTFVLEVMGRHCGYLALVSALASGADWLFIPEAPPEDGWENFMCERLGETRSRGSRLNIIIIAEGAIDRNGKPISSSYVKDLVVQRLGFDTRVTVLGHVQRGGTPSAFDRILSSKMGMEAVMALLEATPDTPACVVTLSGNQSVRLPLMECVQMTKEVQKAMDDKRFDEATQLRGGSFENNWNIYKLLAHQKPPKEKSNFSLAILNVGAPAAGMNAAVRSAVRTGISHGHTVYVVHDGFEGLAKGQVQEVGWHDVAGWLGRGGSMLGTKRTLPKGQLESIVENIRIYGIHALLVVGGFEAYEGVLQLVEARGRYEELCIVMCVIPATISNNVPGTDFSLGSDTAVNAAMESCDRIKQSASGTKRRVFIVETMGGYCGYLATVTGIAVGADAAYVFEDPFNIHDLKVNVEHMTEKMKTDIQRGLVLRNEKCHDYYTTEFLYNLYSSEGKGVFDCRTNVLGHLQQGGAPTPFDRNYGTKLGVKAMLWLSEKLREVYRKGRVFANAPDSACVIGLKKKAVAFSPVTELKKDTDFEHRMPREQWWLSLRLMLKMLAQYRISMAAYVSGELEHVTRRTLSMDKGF
Sequence of UniProt Q92633 (whole entry, unmodified, looked up): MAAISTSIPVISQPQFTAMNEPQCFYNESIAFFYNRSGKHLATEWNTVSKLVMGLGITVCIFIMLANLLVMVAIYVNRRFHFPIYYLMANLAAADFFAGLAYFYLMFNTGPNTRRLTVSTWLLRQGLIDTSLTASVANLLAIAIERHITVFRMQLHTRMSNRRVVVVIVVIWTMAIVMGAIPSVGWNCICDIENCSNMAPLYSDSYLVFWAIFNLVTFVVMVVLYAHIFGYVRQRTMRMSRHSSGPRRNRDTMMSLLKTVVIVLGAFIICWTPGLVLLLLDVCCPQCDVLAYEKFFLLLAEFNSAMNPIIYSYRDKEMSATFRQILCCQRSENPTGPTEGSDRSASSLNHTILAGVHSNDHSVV
Sequence of UniProt P30988 (whole entry, looked up): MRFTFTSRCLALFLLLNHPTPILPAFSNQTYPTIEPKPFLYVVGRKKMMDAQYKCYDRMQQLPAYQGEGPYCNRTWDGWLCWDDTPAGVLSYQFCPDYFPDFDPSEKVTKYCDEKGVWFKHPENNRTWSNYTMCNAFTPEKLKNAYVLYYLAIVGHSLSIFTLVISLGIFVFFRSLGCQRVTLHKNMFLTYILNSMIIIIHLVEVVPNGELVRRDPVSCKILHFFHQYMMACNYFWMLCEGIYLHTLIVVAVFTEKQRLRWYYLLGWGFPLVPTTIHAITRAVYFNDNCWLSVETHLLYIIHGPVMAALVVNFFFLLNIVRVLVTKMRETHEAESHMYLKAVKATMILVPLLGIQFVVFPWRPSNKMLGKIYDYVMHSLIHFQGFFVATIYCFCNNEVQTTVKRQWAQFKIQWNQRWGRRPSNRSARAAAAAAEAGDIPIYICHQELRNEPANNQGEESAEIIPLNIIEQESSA
Sequence of UniProt P47871 (whole entry, looked up): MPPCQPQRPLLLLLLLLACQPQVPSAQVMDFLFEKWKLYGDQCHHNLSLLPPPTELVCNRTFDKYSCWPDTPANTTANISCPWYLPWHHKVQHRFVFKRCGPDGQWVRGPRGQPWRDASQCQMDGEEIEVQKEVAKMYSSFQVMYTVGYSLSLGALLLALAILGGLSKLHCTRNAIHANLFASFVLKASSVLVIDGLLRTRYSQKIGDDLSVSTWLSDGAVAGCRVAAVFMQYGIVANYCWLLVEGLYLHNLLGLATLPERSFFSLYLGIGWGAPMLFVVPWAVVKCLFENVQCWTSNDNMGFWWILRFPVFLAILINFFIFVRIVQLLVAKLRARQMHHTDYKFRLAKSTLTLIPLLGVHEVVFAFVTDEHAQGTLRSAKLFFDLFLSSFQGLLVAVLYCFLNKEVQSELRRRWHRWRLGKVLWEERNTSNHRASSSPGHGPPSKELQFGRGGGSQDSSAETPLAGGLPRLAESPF

With CC[C@H](C)[C@@H](C(=O)N[C@@H](CC(C)C)C(=O)N[C@@H](CO)C(=O)N[C@@H](CO)C(=O)N[C@H](C(=O)N[C@@H](CCC(=O)O)C(=O)N[C@H](C(=O)NCC(=O)N[C@@H](CO)C(=O)N[C@@H](CC(N)=O)C(=O)N[C@H](C(=O)N1C[C@H](O)C[C@H]1C(N)=O)[C@@H](C)O)C(C)C)[C@@H](C)O)N(C)C(=O)[C@H](C)NC(=O)CN(C)C(=O)[C@H](Cc1ccccc1)NC(=O)[C@H](CO)NC(=O)[C@H](CO)NC(=O)[C@H](CCCNC(=N)N)NC(=O)[C@H](CCC(N)=O)NC(=O)[C@H](CC(C)C)NC(=O)[C@H](Cc1ccccc1)NC(=O)[C@H](Cc1c[nH]cn1)NC(=O)[C@H](C)NC(=O)[C@H](CC(C)C)NC(=O)[C@H](CCCNC(=N)N)NC(=O)[C@H](CCC(=O)O)NC(=O)[C@@H](NC(=O)[C@H](C)NC(=O)[C@@H]1CNC(=O)C[C@H](NC(=O)[C@H](CCCNC(=N)N)NC(=O)CC[C@H](NC(=O)CCCCCCCCCCCCCCCCCCC(=O)O)C(=O)O)C(=O)NCC(=O)N[C@@H]([C@@H](C)O)C(=O)N[C@@H](C)C(=O)N[C@@H]([C@@H](C)O)C(=O)N1)[C@@H](C)O the EC50 was over 0.05 µM (Amylin receptor AMY3; CALCR/RAMP3 (Homo sapiens, UniProt O60896+P30988); cAMP accumulation, agonist; COS-7 expressing CTR and RAMP3; 15 min, 37 °C).
With COc1cc(C2C(NC(=O)c3ccc(NC(=O)OC(C)(C)C)cc3)(C(=O)O)C(c3ccc(OC(=O)c4cccs4)c(OC)c3)C2(NC(=O)c2ccc(NC(=O)OC(C)(C)C)cc2)C(=O)O)ccc1OC(=O)c1cccs1 (stereo not drawn) the EC50 was 0.282 µM (GLP1R (Homo sapiens, UniProt P43220, K197A); cAMP, agonist).
The EC50 of N=C(NCC[C@H](NC(=O)c1ccc(-c2ccccc2)cc1)c1nc2ccccc2[nH]1)c1ccc([N+](=O)[O-])o1 is reported as 0.63 µM (STING1 H232R; reporter gene, inhibitor; THP1-Dual KI-hSTING-R232; 24 h, 1 h preincubation, together with: diABZI 500 nM).
For COc1ccc(C(=O)c2c(C(=O)NCCCN(C)C)oc3ccc(Cl)cc3c2=O)cc1OC, the EC50 was 0.0631 µM (GHSR (Homo sapiens, UniProt Q92847); calcium mobilization; HEK293T, transiently transfected).
The EC50 of Cc1cc(NC(=O)c2cccc(N)c2)ccc1Nc1nccc(-c2cccnc2)n1 is reported as about 0.5 µM (MAPK8 (Homo sapiens, UniProt P45983); binding, NanoBRET target engagement; HEK293 live cells; 2 h, together with: tracer K-5).
Cn1cncc1-c1ccc(C(=O)N[C@@H](CCCCNC(=O)c2ccc([N+](=O)[O-])o2)c2nc3ccccc3[nH]2)cc1 gave an EC50 of 17.6 µM (STING1 H232R; reporter gene, inhibitor; THP1-Dual KI-hSTING-R232; 24 h, 1 h preincubation, together with: diABZI 500 nM).
For CC(C)C[C@H](NC(=O)[C@H](Cc1ccccc1)NC(=O)[C@H](CCCNC(=N)N)NC(=O)[C@H](CCC(N)=O)NC(=O)[C@H](CC(C)C)NC(=O)C(C)(C)NC(=O)[C@H](C)NC(=O)[C@H](CCC(=O)O)NC(=O)[C@H](CCC(=O)O)NC(=O)[C@H](CCCCNC(=O)COCCOCCNC(=O)COCCOCCNC(=O)CC[C@H](NC(=O)CCCCCCCCCCCCCCCCCCC(=O)O)C(=O)O)NC(=O)[C@H](CC(C)C)NC(=O)[C@H](Cc1ccc(O)cc1)NC(=O)[C@H](CO)NC(=O)[C@@H](NC(=O)[C@H](CC(=O)O)NC(=O)[C@H](CO)NC(=O)[C@@H](NC(=O)[C@H](Cc1ccccc1)NC(=O)[C@@H](NC(=O)CNC(=O)[C@H](CCC(=O)O)NC(=O)C(C)(C)NC(=O)[C@@H](N)Cc1c[nH]cn1)[C@@H](C)O)[C@@H](C)O)C(C)C)C(=O)N[C@@H](CCC(=O)O)C(=O)N[C@@H](Cc1c[nH]cn1)C(=O)N[C@@H](CC(C)C)C(=O)N[C@H](C(N)=O)C(C)C, the EC50 was over 5 µM (Glucagon receptor (GCGR, Homo sapiens, UniProt P47871); agonist; cross-reactivity).
With CC1CCc2nccnc21 (stereo not drawn) the EC50 was at least 1500 µM (OR5K1; cAMP luminescence, agonist; HEK293).
O=C(N[C@@H](CCCCNC(=O)c1ccc([N+](=O)[O-])o1)c1nc2ccccc2[nH]1)c1ccc(-c2nnco2)cc1 gave an EC50 of 14.4 µM (STING1 H232R; reporter gene, inhibitor; THP1-Dual KI-hSTING-R232; 24 h, 1 h preincubation, together with: diABZI 500 nM).
CCCCCCCC/C=C\CCCCCCCC(=O)OCC(O)COP(=O)(O)O (stereo not drawn) has an EC50 of 0.0617 µM (LPAR1 (Homo sapiens, UniProt Q92633, W210A); Gi activation, agonist, NanoBiT G-protein dissociation; HEK293T; W210A mutant).
For O=C(NCCCC[C@H](NC(=O)c1cccc2ccccc12)c1nc2ccccc2[nH]1)c1ccc([N+](=O)[O-])o1, the EC50 was 25.8 µM (STING1 H232R; reporter gene, inhibitor; THP1-Dual KI-hSTING-R232; 24 h, 1 h preincubation, together with: diABZI 500 nM).
O=C(NC[C@@H](Cc1ccc(F)cc1)N1CCC(O)(C(F)(F)F)CC1)C1(c2ccc(Cl)cc2)CCCC1 has an EC50 of 0.0097 µM (TRPA1 (Homo sapiens, UniProt O75762, V942A)).
CCOC(=O)C(CC)(CCCSCCCCCCNc1ccc([N+](=O)[O-])c2nonc12)NC(=O)c1ccc(C2CC2)c(Cc2ccc(F)cc2)n1 (stereo not drawn) has an EC50 of 0.142 µM (Cnr2; cAMP, agonist).
The EC50 of O=S(=O)(c1ccc2c(c1)OCO2)n1cc(CCCCN2CCC(=C(c3ccc(F)c(F)c3)c3ccc(F)c(F)c3)CC2)nn1 is reported as 0.342 µM (PFKL (Homo sapiens, UniProt P17858); enzyme activity, activator, ADP-Glo; 4).
With CCOC(=O)[C@@](CC)(CCCSCCOCCOCCN)NC(=O)c1ccc(C2CC2)c(Cc2ccc(F)cc2)n1 the EC50 was 0.424 µM (Cnr2; cAMP, agonist).
NCC(=O)N[C@H](Cc1ccccc1)C(=O)N[C@@H](Cc1ccccc1)C(N)=O gave an EC50 of over 501 µM (uncharacterized protein; IP1 accumulation, agonist; CHO-K1 cells, transfected; inactive, value is lower bound).
O=C(Nn1c(-c2cccc(Cl)c2)nc2ccccc2c1=O)c1ccccc1F gave an EC50 of 3.08 ± 0.58 µM (TRPM channel TRPM_PZQ (Fasciola hepatica, UniProt A0A4E0RBW4); whole-cell inward current, activator, automated patch clamp; HEK293).
O=C(N[C@@H](CCCCNC(=O)c1ccc([N+](=O)[O-])o1)c1nc2ccccc2[nH]1)c1ncc(-c2ccccc2)cn1 has an EC50 of 3.5 µM (STING1 H232R; reporter gene, inhibitor; THP1-Dual KI-hSTING-R232; 24 h, 1 h preincubation, together with: diABZI 500 nM).
NC(=O)C[C@H](N)C(=O)N[C@H](Cc1c[nH]c2ccccc12)C(=O)N[C@@H](Cc1ccccc1)C(N)=O gave an EC50 of over 501 µM (uncharacterized protein; IP1 accumulation, agonist; CHO-K1 cells, transfected; inactive, value is lower bound).
CCOC(=O)C(CC)(CCCSCCOCCN)NC(=O)c1ccc(C2CC2)c(Cc2ccc(F)cc2)n1 (stereo not drawn) gave an EC50 of 0.013 µM (Cnr2; cAMP, agonist).
CC1=NC(C)C(C)S1 (stereo not drawn) has an EC50 of 102 µM (OR5K1; cAMP, agonist).
With O=C(N[C@@H](CCCCNC(=O)c1ccc([N+](=O)[O-])o1)c1nc2ccccc2[nH]1)c1ccc(-c2cnco2)cc1 the EC50 was 6.6 µM (STING1 H232R; reporter gene, inhibitor; THP1-Dual KI-hSTING-R232; 24 h, 1 h preincubation, together with: diABZI 500 nM).
With CCOC(=O)C(CC)(CCCSCCOCCOCCOCCN)NC(=O)c1ccc(C2CC2)c(Cc2ccc(F)cc2)n1 (stereo not drawn) the EC50 was 0.014 µM (Cnr2; cAMP, agonist).
The EC50 of O=C(N[C@@H](CCNC(=O)c1ccc([N+](=O)[O-])o1)c1nc2ccccc2[nH]1)c1noc(-c2cc(F)ccc2F)n1 is reported as 11.4 µM (STING1 H232R; reporter gene, inhibitor; THP1-Dual KI-hSTING-R232; 24 h, 1 h preincubation, together with: diABZI 500 nM).
The EC50 of CCOC(=O)C(CC)(CCCSCCCCCCNC(=O)OC(C)(C)C)NC(=O)c1ccc(C2CC2)c(Cc2ccc(F)cc2)n1 (stereo not drawn) is reported as 0.078 µM (Cnr2; cAMP, agonist).
For CC#Cc1ccc(C(=O)N[C@@H](CCNC(=O)c2ccc([N+](=O)[O-])o2)c2nc3ccccc3[nH]2)cc1, the EC50 was 8.6 µM (STING1 H232R; reporter gene, inhibitor; THP1-Dual KI-hSTING-R232; 24 h, 1 h preincubation, together with: diABZI 500 nM).
With CCOC(=O)[C@@](CC)(CCCSCCOCCOCCNC(=O)OC(C)(C)C)NC(=O)c1ccc(C2CC2)c(Cc2ccc(F)cc2)n1 the EC50 was 0.128 µM (Cnr2; cAMP, agonist).

For quick reference, copied from above:
CC1=NC(C)C(C)S1 (stereo not drawn) has an EC50 of 102 µM (OR5K1; cAMP, agonist).
With O=C(N[C@@H](CCCCNC(=O)c1ccc([N+](=O)[O-])o1)c1nc2ccccc2[nH]1)c1ccc(-c2cnco2)cc1 the EC50 was 6.6 µM (STING1 H232R; reporter gene, inhibitor; THP1-Dual KI-hSTING-R232; 24 h, 1 h preincubation, together with: diABZI 500 nM).
